Published values pooled from the literature.
Each numbered part is a random draw from the data of one study; scales do not carry over between parts. Substitutions count along the parent as printed.

Set 1
Target: RING finger protein unkempt homolog, zinc fingers 1-6, GST-SBP tag (UNK, Homo sapiens, UniProt Q9C0B0, residues 30-357)
Technique: RNA Bind-n-Seq
Form: RNA
Sample: in vitro
Tested at: not given
Notes: RNA with constant flanks, ends assumed
Relative to: input RNA pool
Direction: higher = stronger binding
Quantity: bound/input enrichment
Construct (chain): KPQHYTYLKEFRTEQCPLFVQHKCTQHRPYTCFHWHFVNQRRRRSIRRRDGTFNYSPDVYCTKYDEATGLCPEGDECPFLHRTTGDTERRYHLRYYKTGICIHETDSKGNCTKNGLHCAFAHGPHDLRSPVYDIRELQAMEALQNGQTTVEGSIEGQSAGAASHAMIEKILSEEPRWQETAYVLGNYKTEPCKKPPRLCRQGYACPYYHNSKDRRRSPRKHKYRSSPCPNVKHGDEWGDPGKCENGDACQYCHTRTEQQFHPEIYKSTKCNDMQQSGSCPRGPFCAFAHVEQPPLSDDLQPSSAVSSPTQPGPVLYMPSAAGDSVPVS
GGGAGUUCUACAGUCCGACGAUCAGUACACAAACUAAUGGACCUUCUGUUCCUAGUGAAGAAGAAAUUGUUCAGCCACUGGACCGCACAAGAGUGGCUUCUUACAGUGGCACUGUUACUCAAGCCACAUUCACCAGGACUUACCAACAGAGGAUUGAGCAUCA: 0.163 ratio
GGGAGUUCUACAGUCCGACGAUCAGCAGAUGCCCUCUUGCAGGGUGGAUGAGUCAGGCAGGCAGAACCUCCUUAAGUGGUCCACUCCGUGUUACCAGCAGACUGCAGACACUGCAGAGCAGGAACCUCACUCAGUACCUGUCUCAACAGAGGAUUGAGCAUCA: 0.0485 ratio
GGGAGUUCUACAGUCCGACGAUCUCAGUGAUUAUUUUUCCAGCUCCGUGUUUCUCUAAGGAAUUAUUUCACACACGGACCAUCUUCCGCAGUUUCCUCAGUGAUGGAAUAUCAUGAAUGUGAGUCAUUAUGUAGCUGUCGUACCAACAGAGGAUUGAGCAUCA: 0.271 ratio
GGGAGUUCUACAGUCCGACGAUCCUUUCUUUUUGGCCGUCUUUAAAAAAAUUUUUUUUUUUAAUCUAUAAAAUAGACAAGAGCCCGUUCUACAAUGUCCAAGUCAUUCCAGCAGUCAUCUCUCAGUAGGGACUCACAGGGUCACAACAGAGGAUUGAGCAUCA: 0.354 ratio
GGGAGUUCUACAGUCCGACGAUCAGGAUGGGGUUUGUUAAAGUUGUUAAGAAUAAGGCCUACUUUAAGAGAUACCAAGUGAAAUUCCGAAGACGACGAGAGGGUAAAACUGAUUAUUAUGCUCGGAAACGCUUGGUGAUACAACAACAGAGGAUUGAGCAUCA: 0.341 ratio
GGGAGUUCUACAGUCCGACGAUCGAAAUGCUGACAAGAUGUGGCAUUGGUAAGUUGCUACUCUUUGAUUAUGACAAGGUGGAACCCGCCAAUAUGAAUAGACUUUUCUUCCAACCUCAUCAAGCAGGAUUAAGUAAAGUUCAACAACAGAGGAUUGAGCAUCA: 0.155 ratio
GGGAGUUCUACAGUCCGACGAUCCUCCUGGCCCCCAUUAGAUUGCUUUCUUUCUCCAGCGCAGGGUCGUGAUGUGUCCGUCUAAACCGCGUUUUGCAUUAUUUCUAGAUGAGUGCAACUGUCAAAGCAAUAUGGCUUCAGCGGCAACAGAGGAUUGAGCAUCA: 0.553 ratio
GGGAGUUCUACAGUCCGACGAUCGGGAUCGCUCCGUCGCACCCACCAUGAUGGAAGACGACGGGCAGCCCCGGACUCUAUACGCCGGUAACCUUUCCAGAGAUGUGACAGAAGUCCUUAUACUUCAGUUGUUCAGUCAGAUUGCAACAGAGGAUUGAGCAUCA: 0.0724 ratio

Set 2
Target: CCNE2, cyclin fold, Cln2 fusion (human)
Technique: yeast growth competition, sequencing
Sample: yeast
Notes: weak parent motif
Relative to: not given
Direction: higher = stronger binding
Quantity: normalised enrichment score
Starting sequence: SAMHD1 docking peptide (human); ASKSRVQLFKDDP
V6H: -0.0909
K10G: 0.189
Q7R: 0.768
S2Y: 0.198
V6Q: -0.475
D11Y: 0.611
D11Q: 0.0468
V6A: 0.21
S4G: -0.101
V6G: 0.0872
S2D: -0.19
V6N: 0.0363
S4V: 2.02
D12C: 0.254
Q7I: 0.0591
K10C: 0.175
D12P: 0.231
K10M: 0.288

Set 3
Target: CREB3L4, bZIP domain (human)
Technique: DHFR protein complementation
Sample: yeast
Notes: single substitutions, most at no-binding floor
Relative to: wild-type JUN-FOS pair
Direction: higher = stronger binding
Quantity: binding fitness
Starting sequence: JUN, bZIP domain (human); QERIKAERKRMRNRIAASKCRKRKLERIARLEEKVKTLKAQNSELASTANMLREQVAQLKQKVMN; partner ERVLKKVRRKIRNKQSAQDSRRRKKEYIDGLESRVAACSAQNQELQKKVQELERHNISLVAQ
L52A: -1.53 natural log
Q41P: -1.46 natural log
K34T: -1.53 natural log
M51N: -1.5 natural log
T37N: -1.37 natural log
L52R: -1.51 natural log
E54I: -1.37 natural log
T37V: -1.47 natural log
A46P: -1.56 natural log
T37Q: -1.49 natural log
K34H: -1.48 natural log
A46F: -1.47 natural log
A57H: -1.4 natural log
A49N: -1.65 natural log
E32N: -1.36 natural log
S43T: -1.29 natural log
E44P: -1.49 natural log
M51V: -1.42 natural log
Q41D: -1.53 natural log
L59R: -1.45 natural log

Set 4
Target: Ras GTPase-activating protein-binding protein 1, full length (G3BP1, Homo sapiens, UniProt Q13283)
Chain of UniProt Q13283 (whole entry, looked up): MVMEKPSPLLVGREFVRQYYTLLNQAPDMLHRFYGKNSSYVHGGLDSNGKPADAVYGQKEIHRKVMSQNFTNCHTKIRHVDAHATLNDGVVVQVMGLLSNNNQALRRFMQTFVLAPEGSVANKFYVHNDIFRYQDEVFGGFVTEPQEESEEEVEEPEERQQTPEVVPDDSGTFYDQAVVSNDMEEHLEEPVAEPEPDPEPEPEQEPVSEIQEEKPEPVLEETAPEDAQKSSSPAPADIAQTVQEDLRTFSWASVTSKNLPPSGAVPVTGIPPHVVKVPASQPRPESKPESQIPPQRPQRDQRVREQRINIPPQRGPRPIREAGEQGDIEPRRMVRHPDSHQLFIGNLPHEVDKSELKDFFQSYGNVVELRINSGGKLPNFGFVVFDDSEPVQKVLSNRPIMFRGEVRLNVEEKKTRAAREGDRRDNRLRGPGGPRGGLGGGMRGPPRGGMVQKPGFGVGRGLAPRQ
Technique: RNA Bind-n-Seq
Form: RNA
Sample: in vitro
Tested at: 200 nM
Notes: whole 134-nt RNA, ends assumed
Together with: 150 mM KCl
Relative to: input library
Direction: higher = stronger binding
Quantity: log2 enrichment
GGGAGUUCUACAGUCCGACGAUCACCAUGCAGGUGGGCAUCUUUGGGAAGUGGGGCAAGGGGGGGAUAGGGAGGGGGGUAACACUUUGGGAAAAGGUGGUCCCAGGUCGUUUCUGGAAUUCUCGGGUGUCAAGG: 1.52
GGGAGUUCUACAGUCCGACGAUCUUCACAGCCAGCAGGCAUUGGAAUAUGGCACCAAACUCGUUGGAGGAACCACUCCAGGGAAAGGAGGCCAGACACAUCUGGGCUUACCUGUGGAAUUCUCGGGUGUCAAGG: -0.252
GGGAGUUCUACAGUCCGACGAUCCUGUGCUACACAUCGUAUGUACCGAAUCGGGGAAAAAAGGGGAAAAAAGGGGAAAAAAGGGAAAGUAUUAUGUUACGCCGUUCGGAUCUGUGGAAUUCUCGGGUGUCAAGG: -0.228
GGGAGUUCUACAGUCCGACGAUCUGAUGGGACAACACCCGAAAGGAUAGCACAAAUAACAGGACCUCCAGACCGAUGUCAACAUGCUGCAGAAAUUAUUACAGACCUUCUUCGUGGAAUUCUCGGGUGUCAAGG: 0.471
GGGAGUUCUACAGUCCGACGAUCUCCUCAAGUCCUGUGCUACACAUCGUAUGUACCGAAUCGGAAAGGUGGUGGAAAGUAUUAUGUUACGCCGUUCGGAUCUGCACUUCCAGCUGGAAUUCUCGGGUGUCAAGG: -0.612
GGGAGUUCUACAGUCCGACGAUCAAGUCCUGUGCUACACAUCGUAUGUACCGAAUCGGGAAAAAAAGGGUUUGGGUGGGAAAGUAUUAUGUUACGCCGUUCGGAUCUGCACUUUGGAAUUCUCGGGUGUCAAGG: 0.242
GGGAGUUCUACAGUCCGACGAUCGUAGAAAUUCAUGUAUAAAUGGAACCAUAUAGUACAUACAUAUCAUACUCUUAGGUCUGGCAAAUAUUUGAGGUUCAUCCAUAUUUUAUAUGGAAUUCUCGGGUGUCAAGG: -1.64
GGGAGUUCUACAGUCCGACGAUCUCCUGUGCUACACAUCGUAUGUACCGAAUCGGGAAAAAAAGGAAAAAAAGGAAAAAAAGGAAAGUAUUAUGUUACGCCGUUCGGAUCUGCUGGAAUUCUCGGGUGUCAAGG: -0.337
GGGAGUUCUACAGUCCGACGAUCCUGUGCUACACAUCGUAUGUACCGAAUCGGGGCCCCCCGGGGCCCCCCGGGGCCCCCCGGGAAAGUAUUAUGUUACGCCGUUCGGAUCUGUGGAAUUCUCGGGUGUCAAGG: -1.51

Repeated from above (set 1):
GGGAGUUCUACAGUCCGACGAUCGAAAUGCUGACAAGAUGUGGCAUUGGUAAGUUGCUACUCUUUGAUUAUGACAAGGUGGAACCCGCCAAUAUGAAUAGACUUUUCUUCCAACCUCAUCAAGCAGGAUUAAGUAAAGUUCAACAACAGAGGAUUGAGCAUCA: 0.155 ratio
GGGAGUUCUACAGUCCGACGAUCAGUACACAAACUAAUGGACCUUCUGUUCCUAGUGAAGAAGAAAUUGUUCAGCCACUGGACCGCACAAGAGUGGCUUCUUACAGUGGCACUGUUACUCAAGCCACAUUCACCAGGACUUACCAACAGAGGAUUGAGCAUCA: 0.163 ratio
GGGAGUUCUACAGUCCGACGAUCCUUUCUUUUUGGCCGUCUUUAAAAAAAUUUUUUUUUUUAAUCUAUAAAAUAGACAAGAGCCCGUUCUACAAUGUCCAAGUCAUUCCAGCAGUCAUCUCUCAGUAGGGACUCACAGGGUCACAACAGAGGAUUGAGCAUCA: 0.354 ratio
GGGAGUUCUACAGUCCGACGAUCAGGAUGGGGUUUGUUAAAGUUGUUAAGAAUAAGGCCUACUUUAAGAGAUACCAAGUGAAAUUCCGAAGACGACGAGAGGGUAAAACUGAUUAUUAUGCUCGGAAACGCUUGGUGAUACAACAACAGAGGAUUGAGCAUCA: 0.341 ratio
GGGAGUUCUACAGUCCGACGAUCCUCCUGGCCCCCAUUAGAUUGCUUUCUUUCUCCAGCGCAGGGUCGUGAUGUGUCCGUCUAAACCGCGUUUUGCAUUAUUUCUAGAUGAGUGCAACUGUCAAAGCAAUAUGGCUUCAGCGGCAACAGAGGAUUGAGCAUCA: 0.553 ratio
